Experimental data collected from several papers.
Several values in a cell are separate wells, animals, samples, runs or records.
MAP3K20: Mitogen-activated protein kinase kinase kinase 20 (MAP3K20, Homo sapiens, UniProt Q9NYL2)
Sequence of UniProt Q9NYL2 (whole entry, looked up): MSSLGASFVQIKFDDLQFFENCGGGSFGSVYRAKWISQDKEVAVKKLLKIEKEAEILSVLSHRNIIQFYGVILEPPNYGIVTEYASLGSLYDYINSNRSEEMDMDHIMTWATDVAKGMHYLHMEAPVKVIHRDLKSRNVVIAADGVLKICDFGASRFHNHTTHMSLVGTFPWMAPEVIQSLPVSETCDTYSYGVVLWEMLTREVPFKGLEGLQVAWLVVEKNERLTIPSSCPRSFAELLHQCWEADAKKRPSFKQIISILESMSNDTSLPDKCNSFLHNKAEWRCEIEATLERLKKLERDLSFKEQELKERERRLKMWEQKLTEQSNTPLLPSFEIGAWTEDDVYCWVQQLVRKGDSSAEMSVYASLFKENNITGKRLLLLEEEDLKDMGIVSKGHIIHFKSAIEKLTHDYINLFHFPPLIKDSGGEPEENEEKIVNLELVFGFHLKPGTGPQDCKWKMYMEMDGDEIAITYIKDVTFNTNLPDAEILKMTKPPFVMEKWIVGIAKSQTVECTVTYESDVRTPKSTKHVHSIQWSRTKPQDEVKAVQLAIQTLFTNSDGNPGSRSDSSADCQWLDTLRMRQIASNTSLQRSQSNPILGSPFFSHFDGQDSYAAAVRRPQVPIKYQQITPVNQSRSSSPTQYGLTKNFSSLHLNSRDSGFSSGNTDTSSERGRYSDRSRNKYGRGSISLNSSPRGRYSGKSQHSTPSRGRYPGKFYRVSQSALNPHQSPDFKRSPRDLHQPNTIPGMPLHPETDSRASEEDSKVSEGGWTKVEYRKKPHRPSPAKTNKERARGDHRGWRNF

| SMILES | target | test | test system | setting | scale | measurement | result |
| --- | --- | --- | --- | --- | --- | --- | --- |
| CNC1C[S+]2CC[S+]3CC[S+](C1)[Ru-4]321([N]=C=S)[n]2c3ccc(OC)cc3c3c4c(c5cc(F)c[n+]1c5c32)C(=O)NC4=O (stereo not drawn) | MAP3K20 | KinomeScan |  | 0.1 µM | relative to: untreated | remaining binding | 100% |
| Cc1nc2c(F)cc(-c3nc(Nc4ccc(CNC(=O)CCCCCCC(=O)NO)cc4)ncc3F)cc2n1C(C)C | MAP3K20 | enzyme activity, inhibitor |  | 1 µM |  | inhibition | 50% |
| NC(=O)[C@@H](O)C[C@H]1CCc2sc3ncnc(O[C@H]4CC[C@H](N5CCOCC5)CC4)c3c21 | MAP3K20 | enzyme activity, inhibitor |  | 10 µM |  | inhibition | 2% |
| Cc1cnc2nc1Nc1cccc(c1)COC/C=C/COCc1cc(ccc1OCCN1CCOCC1)N2 | MAP3K20 | binding, competition with immobilised ligand |  | 0.1 µM |  | remaining binding | 100% |
| C=CC(=O)N1CCCC(n2c(=O)c3ncccc3n(Cc3ccc(Oc4ccccc4)cc3)c2=O)C1 (stereo not drawn) | MAP3K20 | cell-free assay, competition with immobilised ligand |  | 1 µM |  | remaining binding | 83% |
| CNC(=O)C1CCN(c2cc(C)c(F)cc2NC(=O)c2ccc(-c3cc(O)ccc3C)c(C)c2)CC1 | MAP3K20 | binding, competition with immobilised ligand |  | 1 µM |  | remaining binding | 93% |
| CCCCCC=CC=C1C(=O)C=CC1CC=CCCCC(=O)O (stereo not drawn) | Mitogen-activated protein kinase kinase kinase 20, Cys22 (MAP3K20, Homo sapiens, UniProt Q9NYL2) | competitive isoTOP-ABPP | proteome, soluble, MDA-MB-231 | 100 µM, 60 min, together with: iodoacetamide probe | relative to: DMSO over compound-treated, higher = stronger cysteine blockade | isoTOP-ABPP competition ratio | 3.6 |
| CCN1CCN(Cc2ccc(NC(=O)c3ccc(C)c(NC(=O)c4cncc(-c5cnn(C)c5)c4)c3)cc2C(F)(F)F)CC1 | MAP3K20 | binding, competition with immobilised ligand |  | 1 µM |  | remaining binding | 4.5% |
| Nc1ncc2c(n1)-c1c([nH]c3ccc(C4=CCOCC4)cc13)CCC2 | MAP3K20 | binding, competition with immobilised ligand |  | 1 µM |  | remaining binding | 100% |
| CN1CCN(Cc2ccc(-c3ccc(CO[C@H]4CCC[C@@H]4NC(=O)c4cc(-c5cnn(C)c5)cnc4N)cc3)cc2)CC1 | MAP3K20 | enzyme activity, inhibitor |  | 0.1 µM |  | inhibition | 0% |
| C=CC(=O)N1CCc2ccc(-n3c(=O)ccc4cnc5ccc(-c6cnn(C)c6)cc5c43)cc21 | MAP3K20 | KINOMEscan |  | 1 µM | relative to: DMSO control | remaining binding | 95% |
| N[C@H]1CC[C@H](Nc2nccc(-c3cccnc3Oc3ccc(NC(=O)NC4CC4)c4ccccc34)n2)CC1 | MAP3K20 | kinobead competition pulldown | HEK293/HCT116 lysate mixture | 10 µM, 1 h, 4 °C | lower = stronger competition | log2 LFQ intensity | 22.9 and 23.1 and 22.8 |
| Nc1ncc(-c2cc(-c3cnn(CC(F)(F)F)c3)ncc2F)nc1C(=O)NC1CNCC(F)C1 (stereo not drawn) | MAP3K20 | enzyme activity |  | 1 µM | relative to: DMSO control | remaining activity | 102% |
| Cc1ccc(-c2c(/C=C(\C#N)C(=O)NC(C)C)n(CCCO)c3ncnc(N)c23)cc1 | MAP3K20 | cell-free assay, competition with immobilised ligand |  | 1 µM |  | remaining binding | 100% |
| COc1cc(Nc2nc(C)cc(-c3cnn4nc(OC)ccc34)n2)cc(C(F)(F)F)c1 | MAP3K20 | binding, competition with immobilised ligand |  | 1 µM |  | remaining binding | 77% |

For quick reference, copied from above:
| SMILES | target | test | test system | setting | scale | measurement | result |
| --- | --- | --- | --- | --- | --- | --- | --- |
| CN1CCN(Cc2ccc(-c3ccc(CO[C@H]4CCC[C@@H]4NC(=O)c4cc(-c5cnn(C)c5)cnc4N)cc3)cc2)CC1 | MAP3K20 | enzyme activity, inhibitor |  | 0.1 µM |  | inhibition | 0% |
| C=CC(=O)N1CCc2ccc(-n3c(=O)ccc4cnc5ccc(-c6cnn(C)c6)cc5c43)cc21 | MAP3K20 | KINOMEscan |  | 1 µM | relative to: DMSO control | remaining binding | 95% |
